Measurements of several laboratories.
Lines come from different studies, so protocols differ. ± gives the spread as reported. In brackets after ≈: the same amount, converted by molar mass.

SMILES | organism | assay | system | setting | scale | endpoint | value
CC[C@H](C)[C@H](NC(=O)[C@H](CCCCN)NC(=O)[C@H](CCCCN)NC(=O)[C@H](CC(C)C)NC(=O)[C@H](CCCCN)NC(=O)[C@H](CCC(=O)O)NC(=O)[C@H](CCCCN)NC(=O)[C@@H](NC(=O)[C@H](CCCCN)NC(=O)[C@H](CC(N)=O)NC(=O)[C@H](CCCNC(=N)N)NC(=O)[C@H](Cc1ccccc1)NC(=O)[C@H](CCCCN)NC(=O)[C@H](CCCNC(=N)N)NC(=O)[C@H](CC(C)C)NC(=O)[C@H](CCCNC(=N)N)NC(=O)[C@H](CCCCN)NC(=O)[C@H](CCCNC(=N)N)NC(=O)[C@H](CC(C)C)NC(=O)[C@@H](N)CCCNC(=N)N)[C@@H](C)CC)C(=O)NCC(=O)N[C@@H](CCC(N)=O)C(=O)N[C@@H](CCCCN)C(=O)N[C@H](C(=O)N[C@@H](CCC(N)=O)C(=O)NCC(=O)N[C@@H](Cc1ccccc1)C(=O)N[C@H](C(=O)N1CCC[C@H]1C(=O)N[C@@H](CCCCN)C(=O)N[C@@H](CC(C)C)C(=O)N[C@@H](CCC(N)=O)C(=O)N1CCC[C@H]1C(=O)N[C@@H](CO)C(=O)N[C@@H](CCCCN)C(=O)N[C@@H](CCC(N)=O)C(=O)N[C@@H](CO)C(=O)O)C(C)C)[C@@H](C)CC | Stenotrophomonas maltophilia | inhibition zone | CGMCC 1.179 | LB agar, overnight |  | lethal concentration | 10.7 µM
Cc1ccc(N(C)c2cc(N(C)C3CC3)n3ncc(C#N)c3n2)cc1NC(=O)C1CC1 | murine coronavirus | viral replication | MHV-nLuc | concentration not given |  | antiviral activity | inactive
COc1ccc(-c2ccc3oc(-c4ccc(OC)cc4)c(C#CC4(O)CCCCC4)c3c2)cc1 | hepatitis C virus | HCV replicon replication | HCV genotype 1b subgenomic replicon cells | 10 µM | baseline: DMSO | remaining activity | 109%
CC[C@H](C)[C@H](NC(=O)[C@H](C)NC(=O)[C@@H](NC(=O)[C@H](CC(=O)O)NC(=O)[C@H](CCCCN)NC(=O)[C@H](CO)NC(=O)[C@@H](NC(=O)[C@H](CC(N)=O)NC(=O)[C@H](C)NC(=O)[C@@H](NC(=O)[C@H](CCC(=O)O)NC(=O)[C@H](CCCCN)NC(=O)[C@@H](NC(=O)[C@@H](NC(=O)[C@H](Cc1c[nH]cn1)NC(=O)[C@H](CCCCN)NC(=O)[C@@H](NC(=O)[C@H](CCCCN)NC(=O)[C@H](CCCCN)NC(=O)[C@@H](NC(=O)[C@H](CC(C)C)NC(=O)[C@H](CCCCN)NC(=O)[C@H](CC(N)=O)NC(=O)[C@H](Cc1ccccc1)NC(=O)[C@H](CCCNC(=N)N)NC(=O)[C@H](CCCCN)NC(=O)[C@H](CCCNC(=N)N)NC(=O)[C@H](Cc1ccccc1)NC(=O)CN)C(C)C)C(C)C)[C@@H](C)O)[C@@H](C)CC)[C@@H](C)O)C(C)C)C(C)C)C(=O)N[C@H](C(=O)N[C@@H](C)C(=O)NCC(=O)N[C@@H](CO)C(=O)NCC(=O)N[C@H](C(=O)N[C@@H](C)C(=O)N[C@H](C(=O)NCC(=O)N[C@@H](C)C(=O)N[C@@H](C)C(=O)N[C@@H](CCSC)C(N)=O)C(C)C)C(C)C)C(C)C | Gram-negative bacteria except Klebsiella pneumoniae |  | MDR clinical isolates |  |  | MIC90 | 8 µg/mL (≈ 1.85 µM)
Oc1cc(C(F)(F)F)ccc1-c1nc2c(C(F)(F)F)cc(C(F)(F)F)cc2[nH]1 | Acinetobacter baumannii | colistin potentiator | AB 1G2, colistin-resistant | 5 µM |  | colistin MIC | > 16 µg/mL
CN1CC(=O)N=C1N.C[C@H](CCC(=O)O)[C@H]1CC[C@H]2[C@@H]3CC[C@@H]4C[C@H](O)CC[C@]4(C)[C@H]3C[C@H](O)[C@]12C | Enterococcus faecalis |  | TISTR 927 | 1 mg per disc, 18 to 24 h, 37 °C, 6 mm disc |  | inhibition zone diameter | 11.2 ± 1.1 mm
[Cl-].[Cl-].[Mn+2].c1ccc(CN2CCCNCCN(Cc3ccccc3)CCCNCC2)cc1 | Leishmania donovani | parasite growth | THP-1 macrophages | intracellular amastigotes |  | IC90 | 12.7 µM
CC(=O)Oc1ccc(Cn2nc(C)c(=O)[nH]c2=O)cc1C1OC(c2cccc(Cl)c2)=NN1C(C)=O (centres unmarked) | varicella-zoster virus | plaque formation, plaque reduction | HEL fibroblasts, TK+ strain OKA |  |  | EC50 | > 20 µM
[Cl-].[Cl-].[Ni+2].c1ccc(CN2CCNCCN(Cc3ccccc3)CCNCC2)cc1 | Leishmania donovani | parasite growth, resazurin |  | 72 h, amastigote |  | IC50 | > 20 µM
CN(C)c1ccc(/C=C/C(=O)C(C(=O)c2ccccc2)=C2SCCCCS2)cc1 | Mycolicibacterium smegmatis | microbial growth |  | 24 h |  | MIC50 | > 100 µM
CC#N.[Cl][Mn-2]([Cl])([Cl])[Cl].[Mn+2].c1ccc(CN2CCCN3CCCN(CCCN(Cc4ccccc4)CC3)CC2)cc1 | Leishmania donovani | parasite growth, resazurin |  | 72 h, promastigote |  | IC90 | 9.11 µM
[O-][N+]1=C(Cc2ccccc2)C2=NCCCN2c2ccccc21 | Bacteroides fragilis | microbial growth | ATCC25285 |  |  | MIC | 1 µg/mL (≈ 3.43 µM)
CC(=O)[O-].F[P-](F)(F)(F)(F)F.[Ni+2].c1ccc(CN2CCN3CCN(CC2)CCN(Cc2ccccc2)CC3)cc1 | Leishmania donovani | parasite growth, resazurin |  | 72 h, amastigote |  | IC50 | > 20 µM
C=C(C)[C@@H]1CC[C@]2(C(=O)NC(CO)Cc3ccccc3)CC[C@]3(C)[C@H](CC[C@@H]4[C@@]5(C)CCCNC(C)(C)[C@@H]5CC[C@]43C)[C@@H]12 (some centres unmarked) | Human papillomavirus 11 | viral replication | C-33 A |  | baseline: CC50 over EC50 | selectivity index | < 3

Excerpt of the above:
SMILES | organism | assay | system | setting | scale | endpoint | value
CC(=O)[O-].F[P-](F)(F)(F)(F)F.[Ni+2].c1ccc(CN2CCN3CCN(CC2)CCN(Cc2ccccc2)CC3)cc1 | Leishmania donovani | parasite growth, resazurin |  | 72 h, amastigote |  | IC50 | > 20 µM
